# Experimental data of several laboratories.
# A part holds a random share of what one study measured. Positions count from the first letter of the parent shown.

# Set 1
# Target: Interferon regulatory factor 3, full length, phosphomimetic (IRF3, Homo sapiens, UniProt Q14653, residues 1-427, S386D/S396D/S398D/S402D/T404D/S405D)
# Method: protein-binding microarray
# Molecule type: double-stranded DNA, one strand shown
# Medium: in vitro
# Tested at: 2540 nM top
# Setting: 60-bp whole probe
# Added: salmon DNA 0.4 mg/ml
# Relative to: random background probes
# Reading: higher = stronger binding
# Constant ends, left off below: GCCTAGCAC … GTCTTGATTCGCTTGACGCTGCTG
# Residues (chain): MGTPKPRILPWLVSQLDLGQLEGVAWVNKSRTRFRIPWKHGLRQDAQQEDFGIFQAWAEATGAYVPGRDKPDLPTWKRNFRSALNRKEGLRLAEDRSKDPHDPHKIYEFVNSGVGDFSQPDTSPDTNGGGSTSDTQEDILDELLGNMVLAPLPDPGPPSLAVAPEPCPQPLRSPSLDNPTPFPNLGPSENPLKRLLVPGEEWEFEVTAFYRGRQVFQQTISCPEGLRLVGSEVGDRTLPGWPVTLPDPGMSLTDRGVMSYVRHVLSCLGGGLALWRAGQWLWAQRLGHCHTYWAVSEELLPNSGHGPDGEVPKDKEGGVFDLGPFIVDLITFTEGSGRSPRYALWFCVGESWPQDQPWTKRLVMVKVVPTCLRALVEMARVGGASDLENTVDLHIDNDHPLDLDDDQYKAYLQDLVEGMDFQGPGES
Oligonucleotide,fitted relative affinity [z-score]
TCAGTTTTCTCTCCCATACTGTGCTAG,2.13
GACGGTATCGACAGTGGGGACGTGCTA,0.0606
TCCTTTATGTCCTGTCTACATGTGCTA,1.82
TTAGGTTTCCTTATTCTTTAGTGCTAG,7.58
TTAGATATCGGGTTTCAATTAGTGCTA,0.882
GGCACCCAAGCTCTTGTTTGGTGCTAG,-0.643
TTACGTTTCGGTTTCGGTTAGTGCTAG,10.5
TTAGGTTTCCTTCTCCCTTAGTGCTAG,9.69
GACGAACTGAGTTTCGAGACGTGCTAG,1.22
TCATGTGTACATCTCTCACTGTGCTAG,0.334
GACGGACTGAGGTATCGGGACGTGCTA,-0.152
TTTTTTGTATTTTTGATAGAGTGCTAG,1.76
TCAAATCCCCTTCTACTACTGTGCTAG,1.98
GACGGTTTCGGAACTGGGGACGTGCTA,7.64

# Set 2
# Target: PABPC1L2, full length, GST fusion (mouse, UniProt A0ABA7IW68)
# Method: RNAcompete
# Molecule type: RNA
# Medium: in vitro
# Tested at: 20 nM
# Setting: 7-mer, probes averaged, single round
# Relative to: mean of 7-mers
# Reading: higher = stronger binding
# Construct (chain): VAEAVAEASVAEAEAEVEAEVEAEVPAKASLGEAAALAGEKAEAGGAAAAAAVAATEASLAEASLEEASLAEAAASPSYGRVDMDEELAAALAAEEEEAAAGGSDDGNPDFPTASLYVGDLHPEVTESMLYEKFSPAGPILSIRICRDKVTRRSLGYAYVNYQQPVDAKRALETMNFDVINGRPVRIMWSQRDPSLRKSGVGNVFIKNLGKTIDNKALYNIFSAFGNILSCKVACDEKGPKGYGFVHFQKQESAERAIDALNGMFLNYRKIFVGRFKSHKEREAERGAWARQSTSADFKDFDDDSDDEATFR
Oligonucleotide,7-mer Z-score
UUCUUUA,-0.0301
CUAGUAC,-0.144
UUACGCG,-0.244
UUAUAAG,-0.0826
UUUCUGA,-0.38
CGUCAAG,-0.32
GUGCUAG,0.0551
CUGUAGU,-0.313
GAGGAGU,-0.0228
CGAAUGU,-0.228
AACUGUC,-0.175
GCGCGAA,0.00979

# Set 3
# Target: Hepatocyte nuclear factor 3-alpha (Foxa1, Mus musculus, UniProt P35582, residues 1-468, full length assumed)
# Method: EMSA with sequencing
# Molecule type: double-stranded DNA, one strand shown
# Medium: in vitro
# Tested at: 10 and 20 nM
# Setting: whole designed probe, mean of two concentrations, ends assumed
# Relative to: negative control set to 0
# Reading: higher = stronger binding
# Constant ends, left off below: GTGAGCGGTGCCCATTGATGGGGAAC … TTTCACTGGGATCGTGGGGAC
# Target sequence (chain): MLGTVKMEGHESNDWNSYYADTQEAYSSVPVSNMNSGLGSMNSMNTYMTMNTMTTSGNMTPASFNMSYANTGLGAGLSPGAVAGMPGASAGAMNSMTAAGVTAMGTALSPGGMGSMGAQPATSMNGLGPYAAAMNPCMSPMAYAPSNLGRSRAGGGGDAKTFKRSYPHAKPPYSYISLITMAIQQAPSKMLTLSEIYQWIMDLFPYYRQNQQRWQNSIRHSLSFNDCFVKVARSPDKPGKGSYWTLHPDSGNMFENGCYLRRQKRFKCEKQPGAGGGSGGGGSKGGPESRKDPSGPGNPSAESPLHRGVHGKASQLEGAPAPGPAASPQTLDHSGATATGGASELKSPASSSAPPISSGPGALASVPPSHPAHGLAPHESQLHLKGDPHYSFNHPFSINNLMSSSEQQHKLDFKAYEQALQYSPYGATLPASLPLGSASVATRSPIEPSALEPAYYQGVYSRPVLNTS
Oligonucleotide,normalised bound fraction [ratio]
TAATGTATTATTTAGGAATCTACTTATGGGACCCATATCCATGAGAAACGTGAAGAGCGAGAAGCAAGATTCTGTAACACTGTCCACGATATTGTAATCTGAGGAGGCAGGGGTCTCATTCCTGTCTTTGCTCTTGGAAGGGCTCAGGAGCTGCTCTTGATTCTAGGTATGCCATTTCCTTTGTATTTAGGCG,0.0102
AATTTTAGGCTTTTCTACTCTCAACTTCTCTCTGAACTCAAAATTGCAGTGCACCCTCATGAATCTGAGAACAATAAGATTGGCCTAACAAAGTAATCTGGAAGAAAGAATACAATTTGGATGCAGAATATCATTCAAGAAAAACATAGTAAAAGTTATAGATAAATGTAATTACTACTCATTTGCAAAACTG,-0.0636
GTGTGTGCGCGCGCGTGTGTGTGTGTTTTCTTAAGCCGGGCTATTCAAACCCTGCTGCAATTCAATGATTCATCTCCGGTAAAGGGGCATAATGCAAATAAACGGATTGCAAACGGCGCGGTTCGCGCACTTTGCAGCCGGCCCGGTGGAGCAGCCAGTGCCGGATTTCTCCCTTTTTTTGCAGATCTGCAGA,0.359
AATGGGCTCCTGGGAACAGAAGCAACAGCTGCGTGGAGGGTGAGGACAAGCTGACATTTAGAAATATTCTGGTCAAGAGTTCCAATTGGTGTTTGTTTGCTGAGGGCGCTGGTGTGAAGCCCGGCTGAGTCATGAGGTTGGACAGACAGTCCAGGAGCGGCTGAGTAAGGCAAGGTGGGGAAGGGCACATGCT,0.264
TCTGCTGCAGGGCTTGCAGGAACAAATGTTTACAGCCCCTAGGCGGCAGGGGGAGCATCTCCCCTCTGAGTTATGAGCTTTAGAGGCTCCTGTGTAATTTTTTACCTCTCTAGAGCATTGGTGACCGTGGGAGATCGGGATCTGTAAGCACTGAGGTTTTCTGTTTGCGTCATCGTGGCCAGGGTGGGGTGGG,-0.0235
GAACAGATGGATGCAGACACAGCGTTTGGTTCTGAAGGTTTTTAAGAGTTATGGCTTCATCTCTTGATCAGGCCAACAAGGCCTACTACCCTATGTAATCTACGGCTTTCCCTCAAAGGGAGGGCCCCACACTGCTCTCCACTCTTATCATTTTGTGGCTCTCTCCTCCTCACCCACCCACCCCAATCCTGGC,-0.0896

# Set 4
# Target: CCNB1, cyclin fold, Cln2 fusion (human)
# Method: yeast growth competition, sequencing
# Medium: yeast
# Setting: strong parent motif
# Relative to: not given
# Reading: higher = stronger binding
# Parent: RBL2 docking peptide (human); STTRRRLFVENDS
Change,normalised enrichment score
STTRRRLFSENDS [V9S],1.31
STTRRRQFVENDS [L7Q],-0.0963
STTRRHLFVENDS [R6H],0.185
STTRRRLFVENSS [D12S],0.572
STTRRRLFEENDS [V9E],0.87
STTRRRLFVENMS [D12M],0.499
RTTRRRLFVENDS [S1R],1.3
STTRRRLFVEHDS [N11H],0.666
STTRRRLFVEPDS [N11P],1.01
STTRRRCFVENDS [L7C],0.325
STTRRRLFVEIDS [N11I],0.631
STTRRRLFVENDA [S13A],0.927
STTRRRLFKENDS [V9K],0.742
STIRRRLFVENDS [T3I],2.29

# Set 5
# Target: RING finger protein unkempt homolog, zinc fingers 1-6, GST-SBP tag (UNK, Homo sapiens, UniProt Q9C0B0, residues 30-357)
# Method: RNA Bind-n-Seq
# Molecule type: RNA
# Medium: in vitro
# Tested at: not given
# Setting: RNA with constant flanks, human-mouse chimeric sites, ends assumed
# Relative to: input RNA pool
# Reading: higher = stronger binding
# Constant ends, left off below: GGGAGUUCUACAGUCCGACGAUC … CAACAGAGGAUUGAGCAUCA
# Residues (chain): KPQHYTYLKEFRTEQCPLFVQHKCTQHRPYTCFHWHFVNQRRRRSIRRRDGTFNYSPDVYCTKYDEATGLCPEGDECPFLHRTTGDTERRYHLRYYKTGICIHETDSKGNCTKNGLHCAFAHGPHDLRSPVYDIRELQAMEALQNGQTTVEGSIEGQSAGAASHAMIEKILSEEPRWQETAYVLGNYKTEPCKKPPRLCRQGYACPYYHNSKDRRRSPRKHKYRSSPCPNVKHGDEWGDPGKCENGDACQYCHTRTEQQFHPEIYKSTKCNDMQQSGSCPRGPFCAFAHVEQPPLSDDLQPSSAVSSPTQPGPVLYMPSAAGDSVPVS
Oligonucleotide,bound/input enrichment
ACUCUUGACUCUUUCCAUCCUCUUCCUUUCCCUCUUGAUAUUCAAGGCCAUGAAUCCCAAAAUAACAGUCUUAGUGGGAGGCUAGCACCCAAACUGAGAAUAAAUCCACCCCAGUGUCUC,0.618 ratio
GCUGAAAAUGAAGAAGAGGCAGCUGAUGUCUGGUACAACCUGGGGCACAUAGCUGUGGGAAUCGGAGAUACAAACUUGGCCCACCAAUGCUUCAGGCUGGCUCUGGUCAACAACAACCAC,0.152 ratio
CUGUGUGUGCUGAAUAAAUGGCUUGUAAAGAAGUUUUCCAAGUUGUAAACCCAUGCUGUUAUUAUAGUUGCUGCAAAAUGUUCUUCCUGAUAUUGAUUUUAUUUGUUCUGACUCUCCCUC,0.999 ratio
UGACAAGGGCACUGCAGGGCCAUGCCUUUCCUUGACAUACAGAAAAAGUUCGGCCUUAGCCUGGACCGGCACUUUAUGUUCCUAAGCGCAGAACAGCCCUAUAAGAACGCCGCUCGGUGC,0.0659 ratio
CUUUUUGAAUCUUUCAAGAGUUUUGAAGGUCUCUUUUAUUUUCUGGGGUCCAUUGUUAACUUUAGUCAGGACCCAGAUGUGCACUUUAAAUAUAUUCAGGCGGCUUGCAAGACUGGGCAA,0.783 ratio
AAAGAGUGGAUAGAGUGUGCACAUGGAAUCGGUGGGACCCGGGCGAAAAAGGAGUGCAAGAUAGAGUUCGAUGACUUCGAAGAGUGCUUGCUUCGGUACAAAACGAUGAGGCGAAUGCAU,0.328 ratio
AUUGUUGAAGCGAAUCCACUCCUAGAAGCAUUUGGAAAUGCAAAGACUGUUCGCAACAAUAAUAGCAGUCGAUUUGGAAAAUUUGUAGAAAUACAUUUCAAUGAAAAGAGUUCGGUUGUU,0.168 ratio
CACAGAGCAGCACCUACCCCCUCCUCCUUUCCACACCUGCAAACUCUUUUGCCUGGGCUGAAUAUUUAGUGUAAUUACAUCUCAGCUUUGAGGGCUCCUGUGGCAAAAUACCCGGAUAAA,0.626 ratio

# Set 6
# Target: Histone acetyltransferase KAT6A, winged helix 1, GST fusion (KAT6A, Homo sapiens, UniProt Q92794, residues 1-85)
# Method: protein binding microarray
# Molecule type: double-stranded DNA, one strand shown
# Medium: in vitro
# Tested at: not given
# Setting: 8-mer, flanks averaged, mean of 2 arrays, mostly near background
# Relative to: not given
# Reading: higher = stronger binding
# Target sequence (chain): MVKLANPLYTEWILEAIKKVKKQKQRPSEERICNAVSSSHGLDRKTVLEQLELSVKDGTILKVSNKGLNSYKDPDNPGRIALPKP
Oligonucleotide,E-score
ATTTGACA,-0.17
CTAGCGAA,-0.133
AATTAACC,0.115
GCTAAACA,-0.172
AGAAGATC,-0.145
CGACGATC,-0.00234
GAAGAGCA,-0.00614
GATACACA,-0.24
AAGCATCT,-0.0304
AAAACCTA,0.0367
CTACCCAA,-0.122
CCTAATTA,-0.127
CCTTGGTA,-0.0988
GTGCCTCA,-0.0804
CATCGGCA,0.162
AGGATATA,-0.221
AATTTAGA,-0.182
CGCTACTA,0.208
GGCACCAA,-0.0191

# Set 7
# Target: Sal-like protein 4, full length isoform A (SALL4, Homo sapiens, UniProt Q9UJQ4, residues 1-1053)
# Sequence of UniProt Q9UJQ4 (whole entry, looked up): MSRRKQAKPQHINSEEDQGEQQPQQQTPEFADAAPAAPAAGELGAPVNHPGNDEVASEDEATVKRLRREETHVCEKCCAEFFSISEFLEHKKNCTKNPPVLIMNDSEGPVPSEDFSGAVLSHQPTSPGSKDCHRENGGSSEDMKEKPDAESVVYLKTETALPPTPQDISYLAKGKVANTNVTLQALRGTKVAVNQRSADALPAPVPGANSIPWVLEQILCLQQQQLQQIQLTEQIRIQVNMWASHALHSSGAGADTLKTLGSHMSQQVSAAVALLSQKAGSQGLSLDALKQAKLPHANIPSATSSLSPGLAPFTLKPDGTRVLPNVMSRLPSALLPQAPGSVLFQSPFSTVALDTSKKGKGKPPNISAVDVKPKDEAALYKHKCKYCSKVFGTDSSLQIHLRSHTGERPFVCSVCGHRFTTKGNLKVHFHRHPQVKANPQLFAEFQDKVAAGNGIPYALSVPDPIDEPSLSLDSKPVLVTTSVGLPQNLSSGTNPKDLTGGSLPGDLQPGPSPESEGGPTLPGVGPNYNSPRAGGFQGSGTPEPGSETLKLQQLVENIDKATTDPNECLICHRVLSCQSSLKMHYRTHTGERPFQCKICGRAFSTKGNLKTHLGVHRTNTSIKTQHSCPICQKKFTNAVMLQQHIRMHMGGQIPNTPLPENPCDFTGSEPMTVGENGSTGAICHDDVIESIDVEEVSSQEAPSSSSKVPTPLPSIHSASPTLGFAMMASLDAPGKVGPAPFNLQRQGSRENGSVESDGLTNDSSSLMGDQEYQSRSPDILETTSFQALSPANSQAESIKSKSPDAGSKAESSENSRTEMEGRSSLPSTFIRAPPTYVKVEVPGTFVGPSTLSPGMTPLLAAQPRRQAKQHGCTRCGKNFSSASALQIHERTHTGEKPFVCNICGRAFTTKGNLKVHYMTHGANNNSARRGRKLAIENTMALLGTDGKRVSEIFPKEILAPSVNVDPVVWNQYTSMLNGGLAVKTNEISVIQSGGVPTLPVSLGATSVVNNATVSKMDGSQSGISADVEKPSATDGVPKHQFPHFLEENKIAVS
# Method: universal PBM
# Molecule type: double-stranded DNA, one strand shown
# Medium: in vitro
# Tested at: 600 nM
# Setting: 8-mer, flanks averaged, mean of replicates
# Reading: higher = stronger binding
Oligonucleotide,E-score
ACTTTTTA,0.29
CCTAGCAC,-0.16
AACAACCT,-0.00361
ACACAAAC,0.114
GCGAAAGC,-0.143
CACTTCGA,-0.0475
GACGCTGC,-0.299
GAAGCTAC,-0.0533
AAATTCGG,0.0863
